# Experimental data from different studies.
# Each numbered part is a random draw from the data of one study; scales do not carry over between parts.

# Series 1
# Target: TAR DNA-binding protein 43, full length, His tag (TARDBP, Homo sapiens, UniProt Q13148, residues 1-414)
# Technique: RNA Bind-n-Seq
# Form: RNA
# Medium: in vitro
# Tested at: 20 nM
# Setting: 6-mer, flanks averaged, single round
# Together with: 150 mM KCl
# Reference: input library
# Direction: higher = stronger binding
Strand,6-mer enrichment (R)
UGAAAC,0.647
CCUCCA,0.596
GUCUGG,1.52
CCCACG,0.713
AAUGCA,0.737

# Series 2
# Target: Histone acetyltransferase KAT6A, winged helix 1, GST fusion (KAT6A, Homo sapiens, UniProt Q92794, residues 1-85)
# Technique: protein binding microarray
# Form: double-stranded DNA, one strand shown
# Medium: in vitro
# Tested at: not given
# Setting: 8-mer, flanks averaged, mean of 2 arrays, mostly near background
# Reference: not given
# Direction: higher = stronger binding
# Residues (chain): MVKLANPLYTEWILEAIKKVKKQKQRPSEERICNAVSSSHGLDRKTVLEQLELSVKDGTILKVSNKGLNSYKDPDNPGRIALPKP
Strand,E-score
CAGCTTCG,-0.113
ACTGAACG,0.0316
ATCGAATA,-0.0675
GCGACCCA,0.0482
AGTAGCCC,0.0531
GAATGCGA,0.106
CGGGAAAC,0.204
CTACATCC,-0.0158

# Series 3
# Target: Sal-like protein 4, full length isoform A (SALL4, Homo sapiens, UniProt Q9UJQ4, residues 1-1053)
# Sequence of UniProt Q9UJQ4 (whole entry, looked up): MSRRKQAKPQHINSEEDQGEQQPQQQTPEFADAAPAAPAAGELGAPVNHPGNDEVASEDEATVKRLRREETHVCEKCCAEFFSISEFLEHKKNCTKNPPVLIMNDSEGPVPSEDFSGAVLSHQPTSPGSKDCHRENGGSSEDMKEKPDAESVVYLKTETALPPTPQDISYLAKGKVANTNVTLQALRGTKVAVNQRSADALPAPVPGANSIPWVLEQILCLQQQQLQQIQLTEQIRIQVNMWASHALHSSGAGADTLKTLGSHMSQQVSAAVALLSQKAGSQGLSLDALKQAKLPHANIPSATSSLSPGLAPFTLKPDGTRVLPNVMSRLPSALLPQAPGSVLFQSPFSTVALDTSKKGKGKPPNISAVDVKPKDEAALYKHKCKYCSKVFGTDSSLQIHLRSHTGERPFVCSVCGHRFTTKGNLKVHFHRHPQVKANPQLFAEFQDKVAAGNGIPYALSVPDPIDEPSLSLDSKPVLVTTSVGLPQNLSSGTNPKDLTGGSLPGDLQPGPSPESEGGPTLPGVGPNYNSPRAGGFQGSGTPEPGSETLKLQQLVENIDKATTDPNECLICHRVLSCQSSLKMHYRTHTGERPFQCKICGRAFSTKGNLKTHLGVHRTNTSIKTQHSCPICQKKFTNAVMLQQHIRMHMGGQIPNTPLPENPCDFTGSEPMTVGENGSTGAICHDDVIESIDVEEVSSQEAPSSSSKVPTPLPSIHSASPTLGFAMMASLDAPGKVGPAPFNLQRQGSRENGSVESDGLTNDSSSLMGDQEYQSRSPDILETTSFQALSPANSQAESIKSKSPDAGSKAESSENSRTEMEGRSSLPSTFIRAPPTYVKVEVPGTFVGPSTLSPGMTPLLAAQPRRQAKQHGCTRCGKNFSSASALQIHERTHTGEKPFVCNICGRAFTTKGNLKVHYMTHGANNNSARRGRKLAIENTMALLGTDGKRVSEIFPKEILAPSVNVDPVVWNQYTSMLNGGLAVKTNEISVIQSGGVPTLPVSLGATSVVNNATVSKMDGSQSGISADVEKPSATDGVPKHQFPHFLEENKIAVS
# Technique: universal PBM
# Form: double-stranded DNA, one strand shown
# Medium: in vitro
# Tested at: 600 nM
# Setting: 8-mer, flanks averaged, mean of replicates
# Direction: higher = stronger binding
Strand,E-score
ATTGGGAG,0.0248
GGGATACC,-0.334
GTCTGTGA,-0.0248
CGGCCAAC,-0.3
GCTTACGA,0.0519
AAGAAGGA,0.0649
ACATGAGG,0.0345
CCCCGCTC,-0.344
CTCGCAAC,0.0412
TCTATAGA,0.194

# Other studies, line by line
Substance,target,test,system,conditions,scale,endpoint,result
"PhoQ, residues 284 288 289 292 302 303 SMMNNA","PhoP, residues 12 14 15 18 19 LHSVQ (Escherichia coli, UniProt P23836)","Sort-seq, measured: YFP reporter",E. coli,"PhoQ-PhoP variant library, together with: 10 µM Mg2+","reference: high Mg2+ state, higher = stronger signaling",fold induction,10.7

# Repeated from above (series 2):
Strand,E-score
ACTGAACG,0.0316
ATCGAATA,-0.0675
GCGACCCA,0.0482
